# Assay results gathered from unrelated publications.
# Numbered parts are unrelated; each lists some results of a single study.

# Study 1
# Target: Prothrombin, mature alpha-thrombin (F2, Homo sapiens, UniProt P00734)
# Method: aptamer microarray, sandwich
# Molecule type: DNA with 2'F-ANA
# Sample: in vitro
# Tested at: 200 nM
# Notes: whole 15-mer aptamer, many near background
# Added: Cy3 exosite-II aptamer, 400 nM
# Direction: higher = stronger binding
# Oligonucleotide: GGTTGGTGTGGTTGG
Modification,mean fluorescence intensity
2'F-ANA at 3 6 13 14,568 a.u.
2'F-ANA at 1 4 5 8 12,123 a.u.
2'F-ANA at 1 2 3 6 9 13 14 15,64.4 a.u.
2'F-ANA at 1 2 3 5 7 8 9 10 11,70 a.u.
2'F-ANA at 1 2 3 5 7 9 10 13 15,47.8 a.u.
2'F-ANA at 1 3 9 15,325 a.u.
2'F-ANA at 1 4 8 10 13 15,49.8 a.u.

# Study 2
# Target: Sal-like protein 4, full length isoform A (SALL4, Homo sapiens, UniProt Q9UJQ4, residues 1-1053)
# Sequence of UniProt Q9UJQ4 (whole entry, looked up): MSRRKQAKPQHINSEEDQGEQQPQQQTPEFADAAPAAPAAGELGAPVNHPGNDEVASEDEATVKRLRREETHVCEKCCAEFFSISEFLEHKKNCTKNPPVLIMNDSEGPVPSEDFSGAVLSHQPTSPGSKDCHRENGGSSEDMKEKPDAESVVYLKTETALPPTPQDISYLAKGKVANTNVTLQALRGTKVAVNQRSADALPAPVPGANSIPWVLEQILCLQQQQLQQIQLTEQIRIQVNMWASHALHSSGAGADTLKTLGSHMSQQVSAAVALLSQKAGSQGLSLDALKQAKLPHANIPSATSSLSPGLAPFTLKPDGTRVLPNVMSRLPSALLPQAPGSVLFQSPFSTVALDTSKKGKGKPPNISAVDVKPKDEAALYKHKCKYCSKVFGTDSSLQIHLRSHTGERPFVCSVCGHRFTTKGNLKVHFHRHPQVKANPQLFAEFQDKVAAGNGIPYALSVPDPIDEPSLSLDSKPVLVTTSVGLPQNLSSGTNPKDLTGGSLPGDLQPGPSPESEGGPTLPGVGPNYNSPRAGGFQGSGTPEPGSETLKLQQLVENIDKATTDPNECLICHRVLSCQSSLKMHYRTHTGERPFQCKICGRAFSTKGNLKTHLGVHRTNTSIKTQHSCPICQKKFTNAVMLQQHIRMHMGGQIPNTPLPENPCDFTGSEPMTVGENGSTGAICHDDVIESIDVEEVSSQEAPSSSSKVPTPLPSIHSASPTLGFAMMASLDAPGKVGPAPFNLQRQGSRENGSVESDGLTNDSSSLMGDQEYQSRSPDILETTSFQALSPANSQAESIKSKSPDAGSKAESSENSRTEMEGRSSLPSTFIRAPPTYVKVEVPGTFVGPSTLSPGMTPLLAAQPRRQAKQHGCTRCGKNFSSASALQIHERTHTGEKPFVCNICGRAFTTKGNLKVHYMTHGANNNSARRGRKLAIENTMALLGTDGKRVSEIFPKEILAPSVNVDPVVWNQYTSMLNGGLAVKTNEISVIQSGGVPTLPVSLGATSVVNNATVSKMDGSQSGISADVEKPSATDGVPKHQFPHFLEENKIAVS
# Method: universal PBM
# Molecule type: double-stranded DNA, one strand shown
# Sample: in vitro
# Tested at: 600 nM
# Notes: 8-mer, flanks averaged, mean of replicates
# Direction: higher = stronger binding
Oligonucleotide,E-score
CCACGTAA,-0.0382
ATAAGCCG,0.129
GGCCCTAA,-0.177
GGTAAGGA,-0.0675
TATCTTCA,0.292
AGTAATTG,0.133
ATCACCTG,-0.0327
GCAAGGTA,0.0621
GCCTAACA,0.00487
ACTGGTAG,0.0221

# Study 3
# Target: human cyclin B1
# Read-out: peptide binding
# Method: yeast competitive growth sequencing
# Molecule type: peptide
# Organism: Saccharomyces cerevisiae
# Strain: cyclin B1-Cln2 fusion
# Tested at: concentration not given
# Notes: peptide tiling library
# Direction: direction not given
Molecule,binding enrichment score
VLLKRLQDVVSERANH,0.098
RDLFDCDFGDLTPLDF,0.314
VLPGGVPSPGASLTSM,0.833
AIRKMREDRWAVIAKM,0.624
ESSQLTVQAEFDMSAI,0.233
SCCKRKLVVGNGPEGP,0.0866
DKYDEGLYRFNSLNDL,0.52
VRDLSYRLVFLACCVA,-0.351

# Single results of other studies
Substance,target,test,test system,setting,how to read,endpoint,value
"PhoQ, residues 284 288 289 292 302 303 AGHLVA","PhoP, residues 12 14 15 18 19 NHTVL (Escherichia coli, UniProt P23836)","Sort-seq, refers to: YFP reporter",E. coli,"PhoQ-PhoP variant library, added: 10 µM Mg2+","relative to: high Mg2+ state, higher = stronger signaling",fold induction,2.35

# Some of these lines once more (study 2):
Oligonucleotide,E-score
ACTGGTAG,0.0221
TATCTTCA,0.292
GCCTAACA,0.00487
